Results pooled from the literature.
Numbered parts are unrelated; each lists some results of a single study. Changes are numbered by the printed parent chain.

Set 1
Target: Fragile X messenger ribonucleoprotein 1, C-terminal low-complexity region (Fmr1, Mus musculus, UniProt P35922)
Method: RNA Bind-n-Seq
Molecule type: RNA
Sample: in vitro
Tested at: 200 nM
Setting: whole 134-nt RNA, ends assumed
Added: 150 mM KCl
Reference: input library
Direction: higher = stronger binding
Quantity: log2 enrichment
All sequences stand within: GGGAGUUCUACAGUCCGACGAUC … UGGAAUUCUCGGGUGUCAAGG
Sequence = UGUGUGUUAUAUAUUUAUUUUUAAUUGCAGAUGACAGGAUUGGACAUUGAGAAGGACCAGAUUAUUGAGAUGGCCUGUCUGAUAACUGAC; result = -2.06
Sequence = GUCCUGUGCUACACAUCGUAUGUACCGAAUCGGCCCCCCGGCCCCCCGGCCCCCCGGGAAAGUAUUAUGUUACGCCGUUCGGAUCUGCAC; result = 0.193
Sequence = CUCAAGUCCUGUGCUACACAUCGUAUGUACCGAAUCGGGGCGGGCGGGCGGGGAAAGUAUUAUGUUACGCCGUUCGGAUCUGCACUUCCA; result = 0.318
Sequence = CCUCAAGUCCUGUGCUACACAUCGUAUGUACCGAAUCGGUGGUUUUUGGUGGAAAGUAUUAUGUUACGCCGUUCGGAUCUGCACUUCCAG; result = 0.19
Sequence = UAACUUUAGAGGAGGAUCUGAAGGAUAUGGCAGUGGACGUGGAUUUGGGGAUGGCUAUAAUGGGUAUGGAGGAGGACCUGGAGGUGGCAA; result = 0.288
Sequence = UCAAGUCCUGUGCUACACAUCGUAUGUACCGAAUCGGAAGGGAAGGGGAAGGGGAAAGUAUUAUGUUACGCCGUUCGGAUCUGCACUUCC; result = 0.711
Sequence = CACAGACAACACGCACCCACACGGACACAGAGGGAAGGGGUUGGGAUGGGGACAGGGUGCACAGCAGGGCGGGGUAGGACCCCAGCCCCU; result = 1.25

Set 2
Target: CCNB3, cyclin fold, Cln2 fusion (human)
Method: yeast growth competition, sequencing
Sample: yeast
Setting: weak parent motif
Reference: not given
Direction: higher = stronger binding
Quantity: normalised enrichment score
Parent: ORC1 docking peptide (human); PRARKRLELGNLG; partner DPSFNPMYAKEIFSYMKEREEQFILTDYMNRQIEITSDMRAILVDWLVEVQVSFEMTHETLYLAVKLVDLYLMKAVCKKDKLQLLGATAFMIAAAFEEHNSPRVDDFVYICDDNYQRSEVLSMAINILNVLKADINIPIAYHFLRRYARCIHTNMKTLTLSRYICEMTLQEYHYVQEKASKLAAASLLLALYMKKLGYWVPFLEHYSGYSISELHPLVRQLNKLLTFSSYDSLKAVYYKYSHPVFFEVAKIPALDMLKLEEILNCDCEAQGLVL
Change = PRARKRLELGCLG [N11C]; result = 0.141
Change = PRARFRLELGNLG [K5F]; result = 0.153
Change = PRARKRLELGNLV [G13V]; result = -0.0199
Change = PRARKRLEYGNLG [L9Y]; result = 0.246
Change = HRARKRLELGNLG [P1H]; result = 0.225
Change = PRARKRTELGNLG [L7T]; result = -0.211

Set 3
Target: Interferon regulatory factor 7, full length, phosphomimetic (IRF7, Homo sapiens, UniProt Q92985, residues 1-503, S471D/S472D/S475D/S476D/S477D/S483D/S484D/S487D)
UniProt Q92985, sequence (whole entry, unmodified, looked up): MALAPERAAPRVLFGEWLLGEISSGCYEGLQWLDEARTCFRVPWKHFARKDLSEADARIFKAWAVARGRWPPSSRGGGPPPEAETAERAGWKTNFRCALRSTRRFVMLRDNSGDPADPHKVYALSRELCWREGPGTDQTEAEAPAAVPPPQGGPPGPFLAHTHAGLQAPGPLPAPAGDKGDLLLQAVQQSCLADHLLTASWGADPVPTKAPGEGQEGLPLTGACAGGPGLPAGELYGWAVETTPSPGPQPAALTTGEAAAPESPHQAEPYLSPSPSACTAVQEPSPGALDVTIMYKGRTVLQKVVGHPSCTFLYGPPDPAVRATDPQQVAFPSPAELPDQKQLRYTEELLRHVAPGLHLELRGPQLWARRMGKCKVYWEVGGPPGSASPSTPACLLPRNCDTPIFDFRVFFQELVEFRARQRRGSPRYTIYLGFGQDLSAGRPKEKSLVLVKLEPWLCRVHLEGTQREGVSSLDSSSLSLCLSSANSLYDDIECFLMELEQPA
Method: protein-binding microarray
Molecule type: double-stranded DNA, one strand shown
Sample: in vitro
Tested at: 2200 nM top
Setting: 60-bp whole probe
Added: salmon DNA 0.4 mg/ml
Reference: random background probes
Direction: higher = stronger binding
Quantity: fitted relative affinity
All sequences stand within: GCCTAGCAC … GTCTTGATTCGCTTGACGCTGCTG
Sequence = TCAGGACTCAGGTCTCCCACTGTGCTA; result = -0.0275 z-score
Sequence = GACGCTATCGGGTATCGAGACGTGCTA; result = 0.122 z-score
Sequence = GACGGTTTCAACTATCGGGACGTGCTA; result = 0.792 z-score
Sequence = TTAGAACTGTGGTTTCGATTAGTGCTA; result = 3.31 z-score
Sequence = TTAGCTCTCCTTCTCCTTTAGTGCTAG; result = 1.39 z-score
Sequence = CAAACACTAATTTTCAATTCGTGCTAG; result = 1.43 z-score
Sequence = GACGATTTCGGGTATCGAGATGTGCTA; result = 2.86 z-score
Sequence = TTAGATTTCGGTTTCGATTAGTGCTAG; result = 11.9 z-score
Sequence = TCAAGTTTCTCCTTTCCACTGTGCTAG; result = 3.5 z-score
Sequence = GACGGTCTGCTTCTCCTGACGTGCTAG; result = 0.781 z-score

Mixed results
Molecule = PhoQ, residues 284 288 289 292 302 303 SLKLQV; target = PhoP, residues 12 14 15 18 19 NMSSL (Escherichia coli, UniProt P23836); test = Sort-seq, measured: YFP reporter; system = E. coli; setting = PhoQ-PhoP variant library, added: 10 µM Mg2+; how to read = reference: high Mg2+ state, higher = stronger signaling; quantity = fold induction; result = 9.49

Repeated from above (set 3):
Sequence = CAAACACTAATTTTCAATTCGTGCTAG; result = 1.43 z-score
Sequence = GACGCTATCGGGTATCGAGACGTGCTA; result = 0.122 z-score
